Experimental data collected from several papers.
± gives the spread as reported.
rep main protease: Replicase polyprotein 1ab, main protease (rep, Severe acute respiratory syndrome coronavirus 2, UniProt P0DTD1)

Nc1ncnc2c([C@@H]3N[C@H](CO)[C@@H](O)[C@H]3O)c[nH]c12  infected cells (Marburg virus; viral replication, antibody staining; HeLa, Musoke; 0.4 µM, 1 h): 9.4%
TRFQTLLALHRSYLT  responding donors (human CD4 T cells; AIM; peptide): 18%
Cn1cnc(Cn2c(=O)[nH]/c(=N\c3cc4cn(C)nc4cc3Cl)n(Cc3cc(F)c(F)cc3F)c2=O)n1  Tmax (human, normal renal function; oral, 375 mg, single dose, median): 4.25 h
N#Cc1ncccn1  inhibition (rep main protease; reporter gene (mKate2), inhibitor; 20 µM): -0.556%
CC[C@H](C)[C@H](NC(=O)[C@H](CC(C)C)NC(=O)[C@H](Cc1c[nH]c2ccccc12)NC(=O)[C@H](CCC(N)=O)NC(=O)[C@@H](NC(=O)[C@H](Cc1ccccc1)NC(=O)[C@H](C)NC(=O)[C@H](CCCCNC(=O)COCCOCCNC(=O)COCCOCCNC(=O)CC[C@H](NC(=O)CCCCCCCCCCCCCCCCCCC(=O)O)C(=O)O)NC(=O)[C@H](CCC(N)=O)NC(=O)[C@H](C)NC(=O)[C@@H](NC(=O)[C@H](CCCCN)NC(=O)[C@H](CC(=O)O)NC(=O)[C@H](CC(C)C)NC(=O)C(C)(C)NC(=O)[C@@H](NC(=O)[C@H](CO)NC(=O)[C@H](Cc1ccc(O)cc1)NC(=O)[C@H](CC(=O)O)NC(=O)[C@H](CO)NC(=O)[C@@H](NC(=O)[C@H](Cc1ccccc1)NC(=O)[C@@H](NC(=O)CNC(=O)[C@H](CCC(=O)O)NC(=O)C(C)(C)NC(=O)[C@@H](N)Cc1ccc(O)cc1)[C@@H](C)O)[C@@H](C)O)[C@@H](C)CC)[C@@H](C)CC)C(C)C)C(=O)N[C@@H](C)C(=O)NCC(=O)NCC(=O)N1CCC[C@H]1C(=O)N[C@@H](CO)C(=O)N[C@@H](CO)C(=O)NCC(=O)N[C@@H](C)C(=O)N1CCC[C@H]1C(=O)N1CCC[C@H]1C(=O)N1CCC[C@H]1C(=O)N[C@@H](CO)C(N)=O  serum ALT (healthy subjects, single ascending dose; 8.0 mg, day 29): 38.1 ± 26 U/L
CCS(=O)(=O)c1ncc(Cl)c(C(=O)N(Cc2ccc(Cl)cc2)Cc2ccco2)n1  inhibition (rep main protease; viral replication, mKate2 reporter; SARS-CoV-2; 20 µM): -0.0687%
GVYYHKNNK  frequency of responding donors (AIM; peptide, CD8+ T cells from PBMC, human donors; HLA-A*03:01 restricted, unit not given; reference: positive over tested donors): 25

Repeated from above:
N#Cc1ncccn1  inhibition (rep main protease; reporter gene (mKate2), inhibitor; 20 µM): -0.556%
